Results collected from several papers.
Each line is one published result; not all experiments were run side by side. ± gives the spread as reported.
Target: Sodium-dependent dopamine transporter (Slc6a3, Rattus norvegicus, UniProt P23977)
Sequence of UniProt P23977 (whole entry, looked up): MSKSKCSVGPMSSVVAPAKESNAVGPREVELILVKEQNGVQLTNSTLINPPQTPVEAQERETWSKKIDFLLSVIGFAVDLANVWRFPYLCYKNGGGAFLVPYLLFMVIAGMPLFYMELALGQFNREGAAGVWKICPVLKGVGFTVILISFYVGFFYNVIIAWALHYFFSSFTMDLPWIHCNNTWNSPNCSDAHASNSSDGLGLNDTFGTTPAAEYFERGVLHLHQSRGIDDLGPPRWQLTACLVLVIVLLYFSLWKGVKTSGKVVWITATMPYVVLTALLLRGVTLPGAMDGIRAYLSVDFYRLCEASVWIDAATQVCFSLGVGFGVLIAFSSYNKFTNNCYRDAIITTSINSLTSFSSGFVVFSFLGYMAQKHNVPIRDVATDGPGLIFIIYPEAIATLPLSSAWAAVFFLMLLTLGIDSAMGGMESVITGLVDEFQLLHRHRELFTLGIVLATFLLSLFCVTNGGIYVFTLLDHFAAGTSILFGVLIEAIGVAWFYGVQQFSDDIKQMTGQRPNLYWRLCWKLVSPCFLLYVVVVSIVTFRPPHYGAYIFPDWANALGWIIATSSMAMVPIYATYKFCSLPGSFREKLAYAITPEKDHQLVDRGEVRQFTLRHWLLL

Compound | assay | system | conditions | measurement | value
CCC[C@H](C(=O)c1ccccc1)N1CCCC1 | transporter uptake, inhibitor, radiometric | – | – | IC50 | 307 nM
CNC(C)Cc1ccc2ccoc2c1 (stereo not shown) | transporter-mediated release, substrate | rat striatal synaptosomes | 30 min, with: [3H]MPP+ | EC50 | 20 ± 2 nM
CNC(C)C(=O)c1ccccc1 (stereo not shown) | substrate release, releaser | rat striatal synaptosomes | with: [3H]MPP+ | EC50 | 21 nM
CCNC(C)Cc1ccccc1 (stereo not shown) | dopamine release, releaser | rat brain synaptosomes | – | EC50 | 88.5 ± 9.6 nM
CCCN(CCC)CCc1c[nH]c2ccccc12 | inhibitor | – | – | IC50 | 2220 ± 168 nM
CN(CCc1ccc(Cl)c(Cl)c1)CCN1CCCC1 | ligand displacement, radioligand | – | – | Ki | 2510 nM
CNC(COC)C(=O)c1ccc(C)cc1 (stereo not shown) | dopamine transport | – | – | IC50 | 6840 nM
CNCCc1c[nH]c2ccc(OC)cc12 | – | – | – | EC50 | > 10000 nM
CCCC(C(=O)c1ccc2c(c1)OCO2)N1CCCC1 (stereo not shown) | transporter uptake, inhibitor, radiometric | – | – | IC50 | 4.1 nM
CCN(CC)CCc1c[nH]c2ccccc12 | inhibitor | – | – | IC50 | > 10000 nM
O=C(OCCN1CCOCC1)C1(c2ccccc2)CCCCC1 | ligand displacement, radioligand | – | – | Ki | 19600 nM
Cc1ccc([C@H]2OC(N)=N[C@H]2C)cc1 (relative stereo) | substrate release, releaser | rat brain synaptosomes | with: [3H]MPP+ 9 nM | EC50 | 10.9 ± 0.7 nM
CC(C)NCCc1c[nH]c2ccccc12 | inhibitor | – | – | IC50 | > 10000 nM
CCC[C@H](C(=O)c1ccc2c(c1)OCO2)N1CCCC1 | transporter uptake, inhibitor, radiometric | – | – | IC50 | 383 nM
c1ccc(CCN2CCCCC2)cc1 | ligand displacement, radioligand | – | – | Ki | 2940 nM
CNC(C)C(=O)c1ccccc1 (stereo not shown) | dopamine release, releaser | rat brain synaptosomes | – | EC50 | 49.9 ± 3.1 nM
C[C@@H]1N=C(N)O[C@@H]1c1ccc2c(c1)OCO2 (racemic) | substrate release, releaser | rat brain synaptosomes | with: [3H]MPP+ 9 nM | EC50 | 10.2 ± 1.2 nM
COc1ccc2[nH]cc(CCNC(C)C)c2c1 | inhibitor | – | – | IC50 | > 10000 nM
Cc1ccc([C@H]2OC(N)=N[C@H]2C)cc1 (racemic) | substrate release, releaser, [3H]MPP+ release | rat brain synaptosomes | with: [3H]MPP+ 9 nM | EC50 | 8.6 ± 1.1 nM

Some of these lines once more:
Compound | assay | system | conditions | measurement | value
CCC[C@H](C(=O)c1ccccc1)N1CCCC1 | transporter uptake, inhibitor, radiometric | – | – | IC50 | 307 nM
